Experimental data of several laboratories.
Parts stem from different laboratories: compare values within a part only.

Block 1
Target: Fragile X messenger ribonucleoprotein 1, C-terminal low-complexity region (Fmr1, Mus musculus, UniProt P35922)
Method: RNA Bind-n-Seq
Form: RNA
Sample: in vitro
Tested at: 200 nM
Notes: whole 134-nt RNA, ends assumed
Together with: 150 mM LiCl
Reference: input library
Reading: higher = stronger binding
All molecules: 7-deaza-guanosine replaces G
| Sequence | log2 enrichment |
| --- | --- |
| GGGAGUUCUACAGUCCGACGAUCUUCCUCAAGUCCUGUGCUACACAUCGUAUGUACCGAAUCGUGUGUGUGUGUAAAGUAUUAUGUUACGCCGUUCGGAUCUGCACUUCCAGCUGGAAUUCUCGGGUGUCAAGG | 0.436 |
| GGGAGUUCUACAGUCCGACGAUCUAACUUUAGAGGAGGAUCUGAUGGAUAUGGCAGCGGACGUGGAUUUGGGGAUGGCUAUAAUGGGUAUGGAGGAGGACCUGGAGGUGGCAAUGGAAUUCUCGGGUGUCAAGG | 0.236 |
| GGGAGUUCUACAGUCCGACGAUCGUCCUGUGCUACACAUCGUAUGUACCGAAUCGGGAAAGGGAAAAAGGGAAAAAAAGGGAAAGUAUUAUGUUACGCCGUUCGGAUCUGCACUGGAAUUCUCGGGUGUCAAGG | 0.436 |
| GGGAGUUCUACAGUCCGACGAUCUGGGAGGUGGAUUUUGUUUAUUUUUUUAGCUUAUUUCCAGGGGUGGGAAUUUUUUUUUAAUAUGUGUCAUGAAUAAAGUUGUUUUUGAAAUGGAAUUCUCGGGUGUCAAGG | 0.473 |
| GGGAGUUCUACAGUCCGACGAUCAGUCCUGUGCUACACAUCGUAUGUACCGAAUCAAAUUUUUUUAAACCCAAACCCAAAAAAGUAUUAUGUUACGCCGUUCGGAUCUGCACUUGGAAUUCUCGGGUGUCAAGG | 0.551 |
| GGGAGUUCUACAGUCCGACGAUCUGGGAGGUGGAUUUUGUUUAUUUUUUUAGCUCAUUUCCAGGGGUGGGAAUUUUUUUUUAAUAUGUGUCAUGAAUAAAGUUGUUAUUGAAAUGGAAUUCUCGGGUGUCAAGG | 0.0198 |
| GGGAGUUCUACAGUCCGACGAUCACCAUGCAGGUGGGCAUCUUUGGGAAGUGGGGCAAGGAGGGGAUAGGGAGGGGGGUAACACUUUGGGAACAGGUGGUCCCAGGUCGUUUCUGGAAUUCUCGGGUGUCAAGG | 1.4 |
| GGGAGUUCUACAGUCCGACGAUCAGUCCUGUGCUACACAUCGUAUGUACCGAAUCGGGGCCCCGGGGCCCCGGGCCCCGGGAAAGUAUUAUGUUACGCCGUUCGGAUCUGCACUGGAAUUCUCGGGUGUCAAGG | -1.63 |

Block 2
Target: Sal-like protein 4, full length isoform A (SALL4, Homo sapiens, UniProt Q9UJQ4, residues 1-1053)
Sequence of UniProt Q9UJQ4 (whole entry, looked up): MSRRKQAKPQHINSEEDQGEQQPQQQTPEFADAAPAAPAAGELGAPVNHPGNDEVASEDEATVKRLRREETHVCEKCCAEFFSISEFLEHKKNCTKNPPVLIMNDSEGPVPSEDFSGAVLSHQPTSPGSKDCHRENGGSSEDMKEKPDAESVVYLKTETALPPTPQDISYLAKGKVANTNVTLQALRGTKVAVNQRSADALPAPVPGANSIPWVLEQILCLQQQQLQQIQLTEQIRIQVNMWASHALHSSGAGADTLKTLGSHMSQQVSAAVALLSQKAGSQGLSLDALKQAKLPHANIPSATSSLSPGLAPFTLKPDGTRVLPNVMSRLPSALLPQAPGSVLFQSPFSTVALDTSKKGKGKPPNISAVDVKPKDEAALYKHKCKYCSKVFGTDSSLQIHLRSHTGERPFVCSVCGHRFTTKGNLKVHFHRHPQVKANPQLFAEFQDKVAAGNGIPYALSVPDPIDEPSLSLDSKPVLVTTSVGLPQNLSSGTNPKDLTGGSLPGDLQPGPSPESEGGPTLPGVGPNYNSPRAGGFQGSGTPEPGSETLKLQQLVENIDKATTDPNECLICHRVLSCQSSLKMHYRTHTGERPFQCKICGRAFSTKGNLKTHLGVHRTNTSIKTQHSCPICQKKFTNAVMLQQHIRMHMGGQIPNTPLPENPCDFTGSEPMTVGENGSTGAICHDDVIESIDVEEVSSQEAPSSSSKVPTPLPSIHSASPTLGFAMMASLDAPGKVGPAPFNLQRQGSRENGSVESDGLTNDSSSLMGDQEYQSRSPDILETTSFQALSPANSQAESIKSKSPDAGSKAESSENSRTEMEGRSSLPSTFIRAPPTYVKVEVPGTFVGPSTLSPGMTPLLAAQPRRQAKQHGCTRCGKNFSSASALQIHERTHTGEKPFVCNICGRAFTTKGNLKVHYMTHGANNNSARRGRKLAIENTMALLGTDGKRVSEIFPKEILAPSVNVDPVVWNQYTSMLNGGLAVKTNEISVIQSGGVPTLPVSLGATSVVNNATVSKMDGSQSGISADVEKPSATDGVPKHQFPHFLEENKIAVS
Method: universal PBM
Form: double-stranded DNA, one strand shown
Sample: in vitro
Tested at: 600 nM
Notes: 8-mer, flanks averaged, mean of replicates
Reading: higher = stronger binding
| Sequence | E-score |
| --- | --- |
| ATGAGGGG | -0.123 |
| CTTGCTGA | -0.129 |
| AAGGGTCG | -0.171 |
| AGATTATG | 0.222 |
| CTGCTCCC | -0.291 |
| ATATTTGG | 0.344 |
| ACGAGAAT | 0.151 |
| ATGTCGAA | 0.0321 |
| AGCATATA | 0.286 |
| GCTTCCTA | 0.102 |
| CTAAACTC | 0.0264 |
| AGCACATA | 0.106 |
| CTATGGCC | -0.16 |
| GGCGGGTA | -0.218 |
| AAGGTATA | 0.288 |
| AGGTAAAC | 0.156 |
| GCAGGGGC | -0.287 |
| CTAACGTA | 0.283 |
| GTAATAAA | 0.402 |
| AGTGCCAG | -0.309 |
| GCTACCTA | 0.043 |
| ATTCTGTG | 0.159 |
| TCATGCCA | 0.12 |
| AGTATGGC | -0.132 |
| AAATGCTC | 0.104 |

Block 3
Target: RING finger protein unkempt homolog, zinc fingers 1-6, GST-SBP tag (UNK, Homo sapiens, UniProt Q9C0B0, residues 30-357)
Sequence of UniProt Q9C0B0 (30-357, looked up): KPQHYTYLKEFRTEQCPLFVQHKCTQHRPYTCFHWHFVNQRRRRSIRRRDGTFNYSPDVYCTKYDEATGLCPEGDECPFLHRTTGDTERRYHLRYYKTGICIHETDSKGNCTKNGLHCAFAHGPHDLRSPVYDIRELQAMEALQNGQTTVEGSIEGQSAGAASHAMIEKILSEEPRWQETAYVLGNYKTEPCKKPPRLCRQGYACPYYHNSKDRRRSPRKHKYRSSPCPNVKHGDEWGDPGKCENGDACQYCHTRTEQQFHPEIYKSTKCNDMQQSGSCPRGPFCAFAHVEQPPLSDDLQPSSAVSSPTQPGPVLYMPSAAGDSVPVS
Method: RNA Bind-n-Seq
Form: RNA
Sample: in vitro
Tested at: not given
Notes: RNA with constant flanks, human and mouse sites, ends assumed
Reference: input RNA pool
Reading: higher = stronger binding
| Sequence | bound/input enrichment |
| --- | --- |
| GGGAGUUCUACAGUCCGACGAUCCGGUGGCGUUUGGAGCAGACGCGAAACUGGAUGGCUUCUACAGGGAGCCAGGCCUCUGAUAAAAACAAGAUUUUUGGAUUCUUCAAUGAUGGCGAACCCCCCACCAAAAAGCCCAGGAAGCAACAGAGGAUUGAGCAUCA | 0.274 ratio |
| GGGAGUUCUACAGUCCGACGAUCUGAGAUGGCACAGCAUAGGAGACUGAAGUGUGAAAGAAGUCAUAAGAAGGCUUCCUGAGGACUUUGAGGCAACAGAGUGUUGCGUUAAGACCUGACCAUGAGGCAUCAGGCCAUGCCUGCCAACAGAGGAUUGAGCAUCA | 0.103 ratio |
| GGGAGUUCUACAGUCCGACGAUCUAGUGAACAAUGACCUCAUUUUAUUUUCUAUGUUAGUUAUUUAUUUCAAAAUUUACAUUUUAGUUUAUUUUCGUCUGUAAAGCGUAUGUUUCGCACUGCUCUUUUACUCUGAGGGUUUAACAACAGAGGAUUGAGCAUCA | 190 ratio |
| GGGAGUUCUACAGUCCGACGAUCACUAAGCCUACCCCAUUGAUCCUGGACGAGCAAGGCCGCACUGUGGAUGCGACAGGCAAGGAGGUGGAGCUCACACAUCGCAUGCCCACCCUGAAGGCAAACAUUCGGGCUGUGAAGAGGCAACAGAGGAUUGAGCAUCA | 0.189 ratio |
| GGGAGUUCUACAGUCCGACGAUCCCCUAUUUAGGUUUUAAACAGAUUAACCUUUGGACUAUGUUUCAAGCUGCUCAAAAACUGGGAGGAUAUGAAACAAUAACAGCCCGCCGUCAGUGGAAACAUAUUUAUGAUGAAUUAGGCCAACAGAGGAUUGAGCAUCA | 2.18 ratio |
| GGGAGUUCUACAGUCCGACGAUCGUAUAGUAGCAAUAAUUUCUGUAUGUGAUCAAGAGUUUAUUGCAUUAUUUCUUUCCCUGUUCUCUUUUUUUUUUUUUUAAGGGUUAGCAUUAACAAAUGUCAAGGAGUAGCAAAGUCAACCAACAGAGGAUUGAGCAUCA | 3.26 ratio |
| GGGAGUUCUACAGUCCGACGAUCAGGCAUCCAGGUUUAAGAAACAUUCUGCCUAUAACUACUGCCAAAGUGCCUAUUGUAAAAUUUGAACACAGGAGAAGUGGACUAGAAGGUGAUAUCAGUUUAUAUAACACAUUGGCUCAACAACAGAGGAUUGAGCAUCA | 0.919 ratio |
| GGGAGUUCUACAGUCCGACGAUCGGAAUCAACUUCAUGGUCUACCAGCCCACCCCGUGGGAGGCGUCCUCAGACUCGAUAAAACGUUUACAAAAUGCCAUGACAGAAAGUGGCGUGAUGCUUCGGGAGCCUCGAAGAAUCUAUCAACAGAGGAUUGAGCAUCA | 0.113 ratio |

Block 4
Target: Histone acetyltransferase KAT6A, winged helix 2, GST fusion (KAT6A, Homo sapiens, UniProt Q92794, residues 85-181)
Method: protein binding microarray
Form: double-stranded DNA, one strand shown
Sample: in vitro
Tested at: not given
Notes: 8-mer, flanks averaged, mean of 2 arrays, mostly near background
Reference: not given
Reading: higher = stronger binding
Target sequence (chain): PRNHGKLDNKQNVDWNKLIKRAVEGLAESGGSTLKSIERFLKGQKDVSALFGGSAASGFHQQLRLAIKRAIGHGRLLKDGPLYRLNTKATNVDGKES
| Sequence | E-score |
| --- | --- |
| AGGGCAGG | 0.195 |
| GCTAACCC | -0.0173 |
| CCCTGTTC | -0.0381 |
| TATTTTGA | -0.0765 |
| ATTTGGGG | 0.00248 |
| TCAACTGA | -0.0537 |
| ACGATTCA | -0.0275 |
| CGCGTAAG | -0.109 |
| GCGTTACA | -0.0809 |
| ACTACGCT | -0.221 |
| GATACAAA | 0.117 |
| ACACAGCT | -0.196 |
| ACCTAATC | -0.02 |
| ACCTACAA | -0.0161 |
| ACAGACAT | 0.108 |
| ACTGTGCG | -0.0546 |
| ACGGAGGG | 0.053 |
| ACCGTCCT | -0.0682 |
| AGAAGACG | -0.00592 |
| CTTTAATC | 0.0641 |
| GACGTGTA | -0.321 |
| AGGGATAA | 0.0651 |
| GTAGTATA | -0.0315 |
| GCGATTCA | -0.0174 |
| CGCTTAAC | 0.111 |

Some of these lines once more (block 4):
| Sequence | E-score |
| --- | --- |
| ATTTGGGG | 0.00248 |
| TCAACTGA | -0.0537 |
| ACGATTCA | -0.0275 |
| CGCGTAAG | -0.109 |
| GCGTTACA | -0.0809 |
| ACTACGCT | -0.221 |
| GATACAAA | 0.117 |
| ACACAGCT | -0.196 |
| ACCTAATC | -0.02 |
| ACCTACAA | -0.0161 |
